Results from different studies.
Numbered parts are unrelated; each lists some results of a single study.

Series 1
Target: Histone acetyltransferase KAT6A, both winged helices, GST fusion (KAT6A, Homo sapiens, UniProt Q92794, residues 1-181)
Technique: protein binding microarray
Molecule type: double-stranded DNA, one strand shown
Sample: in vitro
Tested at: not given
Setting: 8-mer, flanks averaged, mean of 2 arrays, mostly near background
Relative to: not given
Direction: higher = stronger binding
Residues (chain): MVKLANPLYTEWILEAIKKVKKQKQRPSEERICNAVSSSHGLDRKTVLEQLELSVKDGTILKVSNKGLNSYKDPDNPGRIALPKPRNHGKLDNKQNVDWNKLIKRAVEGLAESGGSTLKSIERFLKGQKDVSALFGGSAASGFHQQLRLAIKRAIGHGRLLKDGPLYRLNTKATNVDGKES
Sequence	E-score
AACGCTCT	0.012
AATAACTA	-0.00274
TGACTTAA	-0.155
AGCATGTA	-0.117
AAGTAGAT	-0.0845
CGGTCAAA	0.175

Series 2
Target: RNA binding protein fox-1 homolog 2, RRM domain, GST-SBP tag (RBFOX2, Homo sapiens, UniProt O43251-10, residues 100-194)
Technique: RNA Bind-n-Seq
Molecule type: RNA
Sample: in vitro
Tested at: 365 nM
Setting: natural RNA segment, single round, ends assumed
Relative to: no-protein control
Direction: higher = stronger binding
Residues (chain): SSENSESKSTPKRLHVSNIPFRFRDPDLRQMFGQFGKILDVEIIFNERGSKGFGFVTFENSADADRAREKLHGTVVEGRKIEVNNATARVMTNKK
Sequence	RBNS enrichment (R)
GGGAGUUCUACAGUCCGACGAUCUUGGAGAUGUCAGGGUCCAUAAGAUGCUUUUUUAGUCUUCAGAAUACCGAGCUACUGGUCCUAAGAUGUUUCAGACUUAAAGCAAAUGCAUGUGUUACACCCAUCCCGUUUGGAAUUCUCGGGUGCCAA	7
GGGAGUUCUACAGUCCGACGAUCUAGUGCCAUCUCCUCAUGAUUGUAGAAGCAGCUGAAUGAGUUUCUUCAGAUUUAAAAUGAAUAGCUGGACUCUGCUGGCUCAGUCUCCUCUCCUUUUUAACACACUUUCUUGGAAUUCUCGGGUGCCAA	0.522
GGGAGUUCUACAGUCCGACGAUCAAGCCCAUGCUGUUGUUGGUUUUUAAGGUUUCUUUCAAUAAUAGGCUAAGGAAAGACAUGUUUUUCUCUUUUAAAUCUCUGCAACUCCAAAGUAGACUCCUUCGAACGUAUGGAAUUCUCGGGUGCCAA	0.707
GGGAGUUCUACAGUCCGACGAUCCCCCGUCUUCCAGGAGCCACAACUCAGAAGAAAAGGGUGCUCAGACUUUUGUUAUACACAUUUGCUUUGUGUAAAUAAAUGUUUACAAUUUUAUAUGAAAGAUGGAAUAAUGGAAUUCUCGGGUGCCAA	0.328

Series 3
Target: POU domain, class 5, transcription factor 1, POU domain (Pou5f1, Mus musculus, UniProt P20263, residues 131-289)
Chain of UniProt P20263 (131-289, looked up): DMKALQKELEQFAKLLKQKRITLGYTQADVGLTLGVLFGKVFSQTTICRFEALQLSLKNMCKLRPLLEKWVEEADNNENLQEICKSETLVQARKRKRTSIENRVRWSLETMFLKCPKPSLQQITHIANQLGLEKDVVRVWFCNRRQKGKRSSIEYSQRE
Technique: Spec-seq
Molecule type: double-stranded DNA, one strand shown
Sample: in vitro
Tested at: not given
Setting: whole probe, mean of replicates
Relative to: not given
Direction: lower = stronger binding
Sequence	relative binding energy [ln ratio]
GAGTCGTCTCGTCAGCACATGCTCGACCGTAGAGCACTCAGGTC	0.656
GAGTCGTCTCGTCAGCACATTGCTATCCGTAGAGCACTCAGGTC	0.454
GAGTCGTCTCGTCAGCACATAAATATCCGTAGAGCACTCAGGTC	-1.06
GAGTCGTCTCGTCAGCACATAAAGATCCGTAGAGCACTCAGGTC	0.295

Mixed results
Substance	target	test	system	setting	how to read	quantity	result
PhoQ, residues 284 288 289 292 302 303 QWQEDG	PhoP, residues 12 14 15 18 19 HLGGL (Escherichia coli, UniProt P23836)	Sort-seq, item: YFP reporter	E. coli	PhoQ-PhoP variant library, with: 10 µM Mg2+	relative to: high Mg2+ state, higher = stronger signaling	fold induction	1.92

For quick reference, copied from above (series 3):
Sequence	relative binding energy [ln ratio]
GAGTCGTCTCGTCAGCACATAAAGATCCGTAGAGCACTCAGGTC	0.295
GAGTCGTCTCGTCAGCACATAAATATCCGTAGAGCACTCAGGTC	-1.06
